Earlier results that unrelated publications cite.
Lines come from different studies, so protocols differ.

Molecule	tested on	test	test system	setting	endpoint	value
CC1(C)NC(=O)N(c2ccc(F)c(C(F)(F)F)c2)C1=O	Schistosoma mansoni		adult, mouse		ED50	15 mg/kg
C[C@H](NP(=O)(O)OC[C@H]1O[C@@](C#N)(c2ccc3c(N)ncnn23)[C@H](O)[C@@H]1O)C(=O)O			human	intravenous infusion, 0.5 h infusion	Tmax	0.75 h
WAKRRPATF	HLA class I histocompatibility antigen, B alpha chain, allele B*08:02 (Homo sapiens, UniProt P01889)	peptide-MHC binding	peptide		IC50	0.029 µM
N#C[C@@]1(c2ccc3c(N)ncnn23)O[C@H](CO)[C@@H](O)[C@H]1O			human	intravenous infusion, 0.5 h infusion	Tmax	1.5 to 2 h
COc1ccc2c(=O)c(C(=O)NC3CCCCC3)cn(CCN3CCOCC3)c2c1	CB1 receptor	binding			Ki	2.92 µM
Nc1ncnc2c1ncn2[C@@H]1O[C@H](COP(=O)(O)OP(=O)(O)OP(=O)(O)O)[C@@H](O)[C@H]1O	dnaK (Escherichia coli, UniProt P0A6Y8, E213C/T22C)			concentration not given	maximum rate	~60 s⁻¹
Cc1c(C(=O)NN2CCCCC2)nn(-c2ccc(Cl)cc2Cl)c1-c1ccccc1I	CB2 receptor	binding			Ki	0.577 µM
COc1cc([C@@H]2c3cc4c(cc3[C@@H](O[C@@H]3O[C@@H]5CO[C@@H](C)O[C@H]5[C@H](O)[C@H]3O)[C@H]3COC(=O)[C@H]23)OCO4)cc(OC)c1O	BCRP	inhibitor			IC50	8 µM

For quick reference, copied from above:
Molecule	tested on	test	test system	setting	endpoint	value
Nc1ncnc2c1ncn2[C@@H]1O[C@H](COP(=O)(O)OP(=O)(O)OP(=O)(O)O)[C@@H](O)[C@H]1O	dnaK (Escherichia coli, UniProt P0A6Y8, E213C/T22C)			concentration not given	maximum rate	~60 s⁻¹
